Measured values collected from several papers.
“And” joins repeats or separate records; there may be more than shown. Numbers after ± are the reported error.
SLCO1B3: Solute carrier organic anion transporter family member 1B3 (SLCO1B3, Homo sapiens, UniProt Q9NPD5)
Chain of UniProt Q9NPD5 (whole entry, looked up): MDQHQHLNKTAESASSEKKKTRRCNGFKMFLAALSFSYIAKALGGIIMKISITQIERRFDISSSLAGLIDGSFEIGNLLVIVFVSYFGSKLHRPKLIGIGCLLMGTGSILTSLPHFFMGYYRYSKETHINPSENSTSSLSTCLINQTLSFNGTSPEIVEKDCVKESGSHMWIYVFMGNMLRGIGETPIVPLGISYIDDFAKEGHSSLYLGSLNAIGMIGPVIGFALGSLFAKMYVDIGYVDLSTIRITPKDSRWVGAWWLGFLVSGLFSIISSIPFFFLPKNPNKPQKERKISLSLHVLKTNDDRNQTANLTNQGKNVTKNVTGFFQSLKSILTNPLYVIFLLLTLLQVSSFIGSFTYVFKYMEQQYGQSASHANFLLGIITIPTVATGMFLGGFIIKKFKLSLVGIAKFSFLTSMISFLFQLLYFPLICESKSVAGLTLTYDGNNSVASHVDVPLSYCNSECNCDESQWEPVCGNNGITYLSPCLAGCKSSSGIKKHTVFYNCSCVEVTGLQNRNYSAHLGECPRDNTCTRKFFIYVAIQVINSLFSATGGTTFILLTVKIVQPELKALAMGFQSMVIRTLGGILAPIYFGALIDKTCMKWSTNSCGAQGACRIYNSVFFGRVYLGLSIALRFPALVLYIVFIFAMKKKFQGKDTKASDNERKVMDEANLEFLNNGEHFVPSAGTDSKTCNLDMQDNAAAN
TF: TF (Homo sapiens, UniProt P02787)
ABCG2: Broad substrate specificity ATP-binding cassette transporter ABCG2 (ABCG2, Homo sapiens, UniProt Q9UNQ0)
Chain of UniProt P05177 (whole entry, looked up): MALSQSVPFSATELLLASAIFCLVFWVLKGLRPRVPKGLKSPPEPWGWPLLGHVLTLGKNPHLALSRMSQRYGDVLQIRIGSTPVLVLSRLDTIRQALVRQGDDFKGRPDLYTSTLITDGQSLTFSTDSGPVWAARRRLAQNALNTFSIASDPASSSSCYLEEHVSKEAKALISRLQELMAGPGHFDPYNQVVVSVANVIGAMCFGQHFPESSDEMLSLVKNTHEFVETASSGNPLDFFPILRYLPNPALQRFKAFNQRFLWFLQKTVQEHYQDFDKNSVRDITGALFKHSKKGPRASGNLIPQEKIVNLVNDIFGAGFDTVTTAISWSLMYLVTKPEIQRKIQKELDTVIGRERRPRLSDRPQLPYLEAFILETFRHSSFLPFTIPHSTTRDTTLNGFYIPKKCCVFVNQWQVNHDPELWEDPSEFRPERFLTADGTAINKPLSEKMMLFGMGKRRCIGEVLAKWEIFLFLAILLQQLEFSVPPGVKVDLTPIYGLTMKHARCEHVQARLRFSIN
Chain of UniProt Q9UNQ0 (whole entry, looked up): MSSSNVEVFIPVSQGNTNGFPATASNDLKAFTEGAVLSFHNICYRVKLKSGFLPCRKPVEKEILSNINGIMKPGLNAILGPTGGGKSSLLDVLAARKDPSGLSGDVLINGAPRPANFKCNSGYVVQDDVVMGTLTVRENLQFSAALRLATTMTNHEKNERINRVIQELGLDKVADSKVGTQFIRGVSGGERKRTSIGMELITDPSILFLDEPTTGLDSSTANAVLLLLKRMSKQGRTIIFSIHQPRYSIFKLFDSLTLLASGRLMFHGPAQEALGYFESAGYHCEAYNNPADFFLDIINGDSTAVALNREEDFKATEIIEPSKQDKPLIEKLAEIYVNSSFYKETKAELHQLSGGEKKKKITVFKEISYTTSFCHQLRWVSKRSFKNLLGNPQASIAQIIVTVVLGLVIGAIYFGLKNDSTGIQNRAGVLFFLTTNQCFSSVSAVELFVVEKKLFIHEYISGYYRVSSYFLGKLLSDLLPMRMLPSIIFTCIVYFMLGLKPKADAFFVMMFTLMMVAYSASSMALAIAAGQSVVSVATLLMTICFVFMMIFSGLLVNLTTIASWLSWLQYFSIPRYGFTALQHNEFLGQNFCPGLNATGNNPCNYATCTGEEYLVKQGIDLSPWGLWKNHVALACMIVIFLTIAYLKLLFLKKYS
Chain of UniProt P11509 (whole entry, looked up): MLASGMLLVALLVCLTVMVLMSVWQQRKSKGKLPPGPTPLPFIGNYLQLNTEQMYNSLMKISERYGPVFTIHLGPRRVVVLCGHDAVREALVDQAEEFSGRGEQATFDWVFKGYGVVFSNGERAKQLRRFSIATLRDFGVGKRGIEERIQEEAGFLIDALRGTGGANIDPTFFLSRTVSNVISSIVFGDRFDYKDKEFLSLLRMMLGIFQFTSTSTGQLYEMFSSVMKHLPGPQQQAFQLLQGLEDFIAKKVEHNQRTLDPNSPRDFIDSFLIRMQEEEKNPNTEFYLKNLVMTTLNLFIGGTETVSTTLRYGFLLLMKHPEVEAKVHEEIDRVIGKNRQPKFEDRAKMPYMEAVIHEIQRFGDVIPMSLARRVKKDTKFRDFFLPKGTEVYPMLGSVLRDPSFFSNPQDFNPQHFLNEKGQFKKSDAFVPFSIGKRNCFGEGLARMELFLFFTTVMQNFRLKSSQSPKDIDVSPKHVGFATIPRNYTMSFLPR

Structure (SMILES) | target or system | assay | system | conditions | how to read | measurement | value
O=C(c1ccc(OCCN2CCCCC2)cc1)c1c(-c2ccc(O)cc2)sc2cc(O[C@@H]3O[C@H](C(=O)O)[C@@H](O)[C@H](O)[C@H]3O)ccc12 | SLCO1B3 | – | liver | – | – | contribution to uptake | 94%
CC(C)OCCOCc1ccc(OCC(O)CN(N=O)C(C)C)cc1 (centres unmarked) | Escherichia coli | enhanced Ames test | WP2 uvrA | 5000 µg/plate, 30% hamster S9 | reference: solvent control | revertant fold increase | 1.1 fold
CN(CCNCc1ccncc1[O-])CCNCc1ccncc1[O-].[Cl-].[Fe+3] | TF | – | – | 0.05 mM, pH 7.4, 37 °C, added: transferrin 0.10 mM | – | transchelation half-life | 19 min
C=CC(=O)Nc1cc(Nc2nccc(-c3cn(C)c4ccccc34)n2)c(OCC(F)(F)F)nc1N(C)CCN(C)C | Cytochrome P450 2A6 (CYP2A6, Homo sapiens, UniProt P11509) | substrate | – | 3 µM, 60 min, 2A6 isoform, liver abundance-normalized | – | contribution to substrate depletion | 3.03%
c1ccc(CN2Cc3cccc(n3)CN(Cc3ccccn3)Cc3cccc(n3)C2)nc1 | Mn2+ | potentiometric titration | – | pH 7.4, ligand and Mn2+ 10 µM | – | pMn | 7.73
C[n+]1cc(/C=N/NC(=O)c2ccc3ccc4ccc(C(=O)N/N=C/c5cc6ccccc6[n+](C)c5)nc4c3n2)cc2ccccc21 | MYC parallel G4 DNA | FRET melting | – | 1 µM, DNA 0.2 µM, added: duplex DNA competitor 10 µM | – | ΔTm | 5.8 ± 1.4 °C
CNC(=O)C1CCCN(C(=O)C2CC3CCC2N3C(=O)[C@@H]2C[C@@H](O)CN2C(=O)NCc2cccc(Cl)c2F)C1 (mixture of isomers) | Cytochrome P450 1A2 (CYP1A2, Homo sapiens, UniProt P05177) | preincubation with NADPH | human | 1.85 µM | reference: negative control | remaining activity | 93.4% and 103% and 94.6%
O=C(O)c1cccc(CN2Cc3cccc(n3)CN(Cc3cccc(C(=O)O)n3)Cc3cccc(n3)C2)n1 | Mn2+ | potentiometric titration | 0.16 M NaCl | 25 °C | – | log stability constant, hydroxo complex | 9.63
c1cc2nc(c1)CSCc1cccc(n1)CSC2 | Zn(II) complex | UV-vis titration | – | bound water deprotonation | – | pKa | 9.6
C[C@@]1(F)[C@H](O)[C@@H](CO)O[C@H]1n1cnc2c(=O)[nH]c(N)nc21 | ABCG2 | bidirectional transport | MDCKII transfected with human BCRP | 10 µM, added: Ko143 1 µM | – | Papp A to B | 2.66 ± 0.17 ×10⁻⁶ cm/s
C[C@]12CC[C@@H]3c4ccc(O)cc4CC[C@H]3[C@@H]1CC[C@@H]2O[C@@H]1O[C@H](C(=O)O)[C@@H](O)[C@H](O)[C@H]1O | SLCO1B3 | – | HEK293-A expressing SLCO1B3 | 1 µM, 2 min | – | uptake | 2520 fmol/mg protein
O=C(c1ccc(OCCN2CCCCC2)cc1)c1c(-c2ccc(O[C@@H]3O[C@H](C(=O)O)[C@@H](O)[C@H](O)[C@H]3O)cc2)sc2cc(O)ccc12 | SLCO1B3 | transporter uptake, inhibitor | HEK293 | 10 µM, pH 7.4 | – | inhibition | 50%
C=C(NC(=O)c1csc(-c2nc3c(cc2O)-c2nc(cs2)C(=O)NC(C(C)O)C(=O)NC(=C(C)OC)c2nc(cs2)C(=O)NC2c4nc(cs4)C(=O)NC(COC(=O)c4c5c6c(cccc6n4O)COC(=O)C(OC4CC(C)(O)C(N(C)C)C(C)O4)C2OC5)c2nc-3cs2)n1)C(N)=O (centres unmarked) | – | – | ICR mice, Streptococcus pneumoniae ATCC 49169 infected, immunocompromised, blood | intravenous, 32 mg/kg/day once daily | – | AUC(0-t) | 4830 ng·h/mL
CN(CCNCc1cc(C(=O)[O-])ccc1[O-])CCNCc1cc(C(=O)[O-])ccc1[O-].[Cl-].[Fe+3].[K+].[K+] | TF | – | – | pH 7.4, 37 °C, 4-fold transferrin decrease | – | transchelation half-life | 28 min
CNc1nc(N)nc2c1ncn2[C@@H]1O[C@H](CO[P@](=O)(O)N[C@@H](C)C(=O)O)[C@@H](O)[C@@]1(C)F | ABCG2 | bidirectional transport | MDCKII transfected with human BCRP | 10 µM | – | Papp B to A | 1.14 ± 0.03 ×10⁻⁶ cm/s
CN(O)C(=O)CCC(=O)NCCCN(CCCCN(CCCNC(=O)CCC(=O)N(C)O)C(=O)CCC(=O)N(C)O)C(=O)CCC(=O)N(C)O.[89Zr] | TF | transchelation challenge | – | concentration not given, 1 days, 37 °C, added: apo-transferrin 10 equiv | – | transferrin binding | 12.5 ± 1.3%
O=C(N/N=C/c1ccc2c(ccc[n+]2Cc2ccccc2)c1)c1cc(C(=O)N/N=C/c2ccc3c(ccc[n+]3Cc3ccccc3)c2)ncn1 | MYC parallel G4 DNA | FRET melting | – | 1 µM, DNA 0.2 µM, added: duplex DNA competitor 10 µM | – | ΔTm | 5.5 ± 0.7 °C
CNS(=O)(=O)Nc1nccc(Cc2c(C)c3ccc(Oc4ncccc4F)cc3oc2=O)c1F | CHP-212 | cell viability | – | 7 days | – | IC50 | 1.02 nM
CNc1nc(N)nc2c1ncn2[C@@H]1O[C@H](CO)[C@@H](O)[C@@]1(C)F | ABCG2 | bidirectional transport | MDCKII transfected with human BCRP | 10 µM, added: Ko143 1 µM | – | Papp A to B | 9.43 ± 0.21 ×10⁻⁶ cm/s
CC(C)(C)N1Cc2cccc(n2)CN(C(C)(C)C)Cc2cc(-c3nc4ccccc4s3)cc(n2)C1 | Cu(II) complex | UV-vis titration | 0.1 M NaCl | 25 °C, bound water deprotonation | – | pKa | 10

Repeated from above:
Structure (SMILES) | target or system | assay | system | conditions | how to read | measurement | value
CN(CCNCc1cc(C(=O)[O-])ccc1[O-])CCNCc1cc(C(=O)[O-])ccc1[O-].[Cl-].[Fe+3].[K+].[K+] | TF | – | – | pH 7.4, 37 °C, 4-fold transferrin decrease | – | transchelation half-life | 28 min
CNc1nc(N)nc2c1ncn2[C@@H]1O[C@H](CO[P@](=O)(O)N[C@@H](C)C(=O)O)[C@@H](O)[C@@]1(C)F | ABCG2 | bidirectional transport | MDCKII transfected with human BCRP | 10 µM | – | Papp B to A | 1.14 ± 0.03 ×10⁻⁶ cm/s
